Measurements of several laboratories.
Each numbered part is a random draw from the data of one study; scales do not carry over between parts. Several values in a cell are separate wells, animals, samples, runs or records.
Sequence of UniProt Q9UK32 (whole entry, looked up): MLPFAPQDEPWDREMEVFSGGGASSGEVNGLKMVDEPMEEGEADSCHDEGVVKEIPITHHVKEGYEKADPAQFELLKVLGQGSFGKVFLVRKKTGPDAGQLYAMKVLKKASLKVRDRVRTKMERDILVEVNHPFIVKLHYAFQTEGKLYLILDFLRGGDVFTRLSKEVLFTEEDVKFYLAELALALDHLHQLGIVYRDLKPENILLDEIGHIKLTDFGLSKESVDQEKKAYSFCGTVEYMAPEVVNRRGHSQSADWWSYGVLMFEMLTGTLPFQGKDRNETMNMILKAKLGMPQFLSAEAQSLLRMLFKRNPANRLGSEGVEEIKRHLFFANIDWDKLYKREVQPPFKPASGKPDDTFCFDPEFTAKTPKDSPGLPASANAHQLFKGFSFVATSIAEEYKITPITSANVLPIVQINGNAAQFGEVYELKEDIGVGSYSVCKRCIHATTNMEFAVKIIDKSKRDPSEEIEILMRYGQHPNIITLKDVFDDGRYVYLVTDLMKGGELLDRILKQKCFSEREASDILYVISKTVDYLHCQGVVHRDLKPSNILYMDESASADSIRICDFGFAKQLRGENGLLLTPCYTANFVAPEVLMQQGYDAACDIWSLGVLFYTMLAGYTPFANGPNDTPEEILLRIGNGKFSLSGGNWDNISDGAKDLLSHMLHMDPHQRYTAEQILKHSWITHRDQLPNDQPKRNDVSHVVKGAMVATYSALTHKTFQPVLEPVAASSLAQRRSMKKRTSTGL
Sequence of UniProt Q16816 (whole entry, looked up): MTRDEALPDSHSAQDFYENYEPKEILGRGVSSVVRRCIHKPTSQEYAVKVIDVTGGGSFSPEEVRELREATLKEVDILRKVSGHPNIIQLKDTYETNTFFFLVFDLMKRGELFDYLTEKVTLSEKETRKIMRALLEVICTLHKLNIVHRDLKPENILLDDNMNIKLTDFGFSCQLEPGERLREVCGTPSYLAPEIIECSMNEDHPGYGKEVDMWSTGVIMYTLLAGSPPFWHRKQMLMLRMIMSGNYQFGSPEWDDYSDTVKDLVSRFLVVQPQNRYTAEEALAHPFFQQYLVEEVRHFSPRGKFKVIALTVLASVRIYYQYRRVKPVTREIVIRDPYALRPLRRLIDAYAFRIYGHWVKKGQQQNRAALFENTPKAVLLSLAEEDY
Sequence of UniProt Q9UQM7 (whole entry, looked up): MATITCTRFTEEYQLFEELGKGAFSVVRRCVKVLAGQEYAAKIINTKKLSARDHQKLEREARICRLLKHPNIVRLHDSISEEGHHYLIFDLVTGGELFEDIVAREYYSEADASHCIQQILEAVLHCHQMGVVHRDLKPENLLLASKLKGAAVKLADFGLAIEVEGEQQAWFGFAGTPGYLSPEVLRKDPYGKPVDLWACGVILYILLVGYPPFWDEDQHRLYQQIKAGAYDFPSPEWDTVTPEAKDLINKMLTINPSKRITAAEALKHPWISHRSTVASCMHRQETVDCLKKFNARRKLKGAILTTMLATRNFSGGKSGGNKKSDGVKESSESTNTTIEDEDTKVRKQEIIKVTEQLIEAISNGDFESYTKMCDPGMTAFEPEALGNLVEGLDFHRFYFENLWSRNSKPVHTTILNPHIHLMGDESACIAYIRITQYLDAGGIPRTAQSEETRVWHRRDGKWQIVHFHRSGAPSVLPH
Sequence of UniProt Q9H3Y6 (whole entry, looked up): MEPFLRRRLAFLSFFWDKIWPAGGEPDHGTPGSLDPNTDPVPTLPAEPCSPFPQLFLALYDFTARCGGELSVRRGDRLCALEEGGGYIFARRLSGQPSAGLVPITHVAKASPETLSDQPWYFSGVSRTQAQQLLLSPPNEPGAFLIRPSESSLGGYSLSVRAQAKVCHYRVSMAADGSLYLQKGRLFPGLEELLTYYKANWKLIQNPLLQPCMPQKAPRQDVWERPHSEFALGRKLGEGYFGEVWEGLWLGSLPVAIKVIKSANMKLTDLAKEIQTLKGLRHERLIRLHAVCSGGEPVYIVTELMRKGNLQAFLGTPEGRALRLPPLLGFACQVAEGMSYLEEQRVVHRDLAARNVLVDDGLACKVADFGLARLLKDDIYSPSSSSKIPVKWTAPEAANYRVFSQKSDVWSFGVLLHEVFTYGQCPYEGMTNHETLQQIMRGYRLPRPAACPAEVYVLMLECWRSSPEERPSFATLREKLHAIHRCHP
Sequence of UniProt O75716 (whole entry, looked up): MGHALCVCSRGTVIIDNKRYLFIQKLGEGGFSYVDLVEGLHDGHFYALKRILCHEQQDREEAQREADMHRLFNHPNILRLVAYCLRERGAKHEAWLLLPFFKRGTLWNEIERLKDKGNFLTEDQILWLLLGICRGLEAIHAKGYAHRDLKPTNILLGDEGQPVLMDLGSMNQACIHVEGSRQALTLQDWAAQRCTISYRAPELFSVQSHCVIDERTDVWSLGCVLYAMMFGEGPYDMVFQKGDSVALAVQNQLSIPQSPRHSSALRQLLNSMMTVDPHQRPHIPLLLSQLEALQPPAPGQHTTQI
Sequence of UniProt Q9UEE5 (whole entry, looked up): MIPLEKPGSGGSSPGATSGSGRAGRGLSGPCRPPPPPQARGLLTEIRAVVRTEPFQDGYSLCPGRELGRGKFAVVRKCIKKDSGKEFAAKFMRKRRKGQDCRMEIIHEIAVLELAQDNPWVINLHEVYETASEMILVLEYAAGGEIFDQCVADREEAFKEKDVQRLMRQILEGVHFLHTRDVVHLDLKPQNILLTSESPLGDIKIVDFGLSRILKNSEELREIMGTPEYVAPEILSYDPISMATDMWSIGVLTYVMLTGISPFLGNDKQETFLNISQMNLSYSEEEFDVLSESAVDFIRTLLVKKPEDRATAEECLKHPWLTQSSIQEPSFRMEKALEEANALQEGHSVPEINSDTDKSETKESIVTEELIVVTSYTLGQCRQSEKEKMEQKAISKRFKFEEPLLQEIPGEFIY

Block 1
Structure (SMILES): CN[C@@H]1C[C@H]2O[C@@](C)([C@@H]1OC)n1c3ccccc3c3c4c(c5c6ccccc6n2c5c31)C(=O)NC4
Read-out: enzyme activity
Action: inhibitor
Tested at: 0.5 µM
Baseline: control
| target | remaining activity |
| --- | --- |
| RPS6KA6 (Homo sapiens, UniProt Q9UK32) | 1.15% and 1.67% |
| STK17A (Homo sapiens, UniProt Q9UEE5) | 62.9% |
| STK16 (Homo sapiens, UniProt O75716) | 47.9% |
| PHKG1 (Homo sapiens, UniProt Q16816) | 2.34% and 1.43% |
| SRMS (Homo sapiens, UniProt Q9H3Y6) | 97.6% |

Block 2
Cell line: mouse MPNST tumor cells
Method: high-content immunofluorescence imaging
Refers to: nuclear SOX9
Tested at: 10 µM
Time: 12 h
Notes: mean of 2 replicates
Baseline: DMSO control
Reading: higher = more nuclear SOX9
| SMILES | nuclear SOX9 intensity |
| --- | --- |
| C#CCN(C)[C@H](C)Cc1ccccc1 | 100 % of DMSO |
| Cc1nnc2n1-c1sc(CCC(=O)N3CCOCC3)cc1C(c1ccccc1Cl)=NC2 | 96.9 % of DMSO |
| NC(=O)CN1CCCC1=O | 99.2 % of DMSO |

Single results of other studies
| Compound | target or system | test | test system | setting | quantity | result |
| --- | --- | --- | --- | --- | --- | --- |
| CC(C)n1cnc(-c2ccc(F)cc2)c1-c1ncc(C(=O)Nc2ccc(N3CCN(C)CC3)cc2)[nH]1 | – | – | human, idiopathic pulmonary fibrosis | 30 mg twice daily, trial, without standard of care | serious AEs resulting in death | 10% |
| O=C1C=C2C=C[C@@H]3C[C@@]2(O1)[C@@H]1CCCCN31 | CAMK2A (Homo sapiens, UniProt Q9UQM7) | enzyme activity, inhibitor | – | 10 µM | inhibition | 8% |

Some of these lines once more (block 1):
| target | remaining activity |
| --- | --- |
| PHKG1 (Homo sapiens, UniProt Q16816) | 2.34% and 1.43% |
